Measured values gathered from unrelated publications.
A part holds a random share of what one study measured.

Block 1
Target: RNA binding protein fox-1 homolog 2, RRM domain, GST-SBP tag (RBFOX2, Homo sapiens, UniProt O43251-10, residues 100-194)
Method: RNA Bind-n-Seq
Form: RNA
Sample: in vitro
Tested at: 365 nM
Setting: natural RNA segment, single round, ends assumed
Reference: no-protein control
Direction: higher = stronger binding
All sequences stand within: GGGAGUUCUACAGUCCGACGAUC … UGGAAUUCUCGGGUGCCAA
Target sequence (chain): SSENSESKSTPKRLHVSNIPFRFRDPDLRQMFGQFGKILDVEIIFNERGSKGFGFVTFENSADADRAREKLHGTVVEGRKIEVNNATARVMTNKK
Strand | RBNS enrichment (R)
UUUGUUUUGUUUUGUUUAAUAAGGUCCCAUGGCUUCUUUGGGAAUCCACGAUAAGAAAAACAACCCCACCAAUCAGAUAGCGGAGCCUGUUAUUUGAAGCUGCAGAGCCA | 0.45
AAGCCCCCUCCUAUGAGGAUGAGCAAAAAUACUACUCUCUUCGCCCUGAGUUGCUUUCUGGAUCUGGGGCUUCAGGACUUGCUGCUUCAGUCAGCCUUUAUUAGCACCAA | 0.347
AAGUGUGUGACCUUUUCUCCUGCUGAGUGGGAGAUCCCAGGGUCCCACACGCCUCACCUCGGUGAGUGGGCAGAGCUGAGCCGCACUGUGUGCCUGGGAGCAGGUUACAA | 0.206
GAGGGAGAUGGCACACGGGGCUCAGCCCUGUUGGGAAACUGGUGUGGAGACCCUUAAAUCCACACUGUGCUCCAAAACUCCCUCUGCUGAUACUCCUUGGAGACACCCUC | 0.408
GAUUUUGGGCCUAAAGAUGCCAGUGCUUUUCAGCUGUGGUGUGCAUGUCAUUAACUACCCCUCUCUGUUUUUACCCCUCUACCUUUGCAGGACCCGGGUCAUGGGUCAGU | 6.01
UUGAUAUAUAGCAGGUAACAUUGAAGCUAUUCCAUAGCACUUAACUGUAGUGAAUACUGUGUCACCAAUUUUGAAAUCAAUUUAAUGUUUAAUGCAAAUCCAUUACAUGG | 0.566
ACUUCUUACAUUGUGGCAAGAAAAAAUGAGGAAGAAGCAAAAGCAGAAACCCCUGAUAAACUGAUCAGAUCUCAUGAGACUUAUUCACUGUCACGAGAAUAGCACGGGAA | 1.58
ACAGACUGCAGCGUGCAUGGCCUCUACCCACAAGAGAUGCACUGCAGGAGGCCGGCCCUGUUCUCUGUACUCAGCAUUUUGACAUCUCCUUUGAAGGCCAGGUAUAUGUG | 3.79
AAAAGCUUAAAUAUUCUUUCUUUUAAAUGUCUGUUAAGAAUAUGAUGCCAAUGGCUUGAAUUGAGUUCUUUUCAAGAACUGAUAGACUAUUUGGUAUGAAGUAGCAAAGC | 0.465
AAUUUGAGCCACCAAAAUACACUGCAUUACAGAAAUUGCCACUUGAUUCUGUACUCUUAACCUUUGGCUACUUCACAGACUCCAUUGGCAACACUGUUAUUGAAAAUCAU | 0.603
UGGCCAGGUCUCACCACCUCAGUGUGCAGUUCAACUCCAUGCCAUCCCAUCAAGAUGGGUUAGUAGCAGUGUCUGUUUUUGAAUGCCAAGUGUGAUUUCCAACAAUUCUG | 0.373
AUUAAAGUAGGAGAAAGAAUGUGCUGAGUGUUUUCCUCCCUUUGCCUCUACCUGGCCCUCAUCCCAACAGCCCAGCAAGGGGAGAGAGAAAGAGAAUUCUUUUCUAUAGA | 0.881

Block 2
Target: Phosphate system positive regulatory protein PHO4, full length, GST-tagged (PHO4, Saccharomyces cerevisiae, UniProt P07270, residues 1-312)
Method: competition protein-binding microarray
Form: double-stranded DNA, one strand shown
Sample: in vitro
Tested at: 2 µM
Setting: whole 60-bp probe, lowest competitor level
With: Cbf1 competitor, 0.05 µM
Direction: higher = stronger binding
All sequences stand within: … GTCTTGATTCGCTTGACGCTGCTG
Construct (chain): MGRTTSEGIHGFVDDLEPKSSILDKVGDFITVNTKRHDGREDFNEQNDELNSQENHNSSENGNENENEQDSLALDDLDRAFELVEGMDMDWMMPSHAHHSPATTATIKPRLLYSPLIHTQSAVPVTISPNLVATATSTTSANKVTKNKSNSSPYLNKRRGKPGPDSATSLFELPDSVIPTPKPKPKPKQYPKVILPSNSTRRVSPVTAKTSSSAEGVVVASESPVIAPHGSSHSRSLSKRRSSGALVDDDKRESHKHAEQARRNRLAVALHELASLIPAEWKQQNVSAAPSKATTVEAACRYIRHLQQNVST
Strand | fluorescence intensity [a.u.]
ACCAGCTGTTCCCAGCACCTGACGATTACCGACCAG | 4860
GGAGTAGACACACTACACGTGATGGCAGTAGGAGAG | 14400
CATACCCAACCTTGTCACCGTACTTAAGATATTTGT | 3920
GACCCGCCCCTGGGTCACGTGTTGCCTGCGGACCCG | 14600
AACAATGGTCATAAACATGTGGTGAGCAATGTTTCA | 10500
TAACAGTATATCCGACACGCACGGCAAGACCACTTA | 7480
GTCTTGTCTCATTGAAAAGTGGGTGTCCCCACTTCA | 4090
CCGGAAAAACCTGTTCGCGTGAGCCGAACAACTTTC | 5030
TAGGAGACTAGTGGTTATGTGACGGTGCGAACCTAA | 3390
GAAGCGTTGCCCTATGACGTGCAAAGTACCGATATT | 5620
AAAGCGGTAATTTGCAAGGTGGGTGCAGATATCTAT | 5110
TTGTAATGCTTTCGTCTCGTGCCAGGCCTGCGCTAA | 7670
AATGCAAACTGGGAGAATGTGACTCGATCGAGGAAA | 4400
CGCCGGCTGGCGCTTCCCGTGGAAGGGTGTTTGACT | 4940
AAATTACTAAGTTGCGGTGTGGGTGACGCCGTATGA | 4960
CTTTGCACAATGCATTACGTGGGACCACATCCCTTT | 7160
TGCGCAACAACTTGTCACAAAACTTTATGTCTAGAA | 2990
GCGCAACAAATACCTGATGTGACGCCTACCCTTTGG | 3240
CGGGGTTAAGTTTGGACTGTGGGTGGCTTGCAGCAG | 5450
CTCAGGTAGACGGTGCTCGTGTCGGGACAATTTTAA | 8550
GTAAGTAATGTACTTCACGTGTGTTCCACTGGTAAT | 14000
CATACCCAACCTTGCCCCGTGGGTGAAGATATTTGT | 12100
TGAGAACATCCAACTAGCGTGCCGATGCAATCCCAG | 6770
GTCAGAAAGCCGGGTAAGGTGTGCCAGCGCGAGTAA | 5840
CATACCCAACCTTGGGCGGTGGGTGAAGATATTTGT | 4060

Block 3
Target: Interferon regulatory factor 5, full length, phosphomimetic (IRF5, Homo sapiens, UniProt Q13568-2, residues 1-514, K96S/S451D/S453D/S456D/S462D)
Method: protein-binding microarray
Form: double-stranded DNA, one strand shown
Sample: in vitro
Tested at: 250 nM
Setting: 60-bp whole probe
With: salmon DNA 0.4 mg/ml
Reference: random background probes
Direction: higher = stronger binding
All sequences stand within: GCCTAGCAC … GTCTTGATTCGCTTGACGCTGCTG
Strand | log fluorescence
TTAGGTATTGGTTTCGGTTAGTGCTAG | 9.94 z-score
GACGGACTGCTACTGCTTACGTGCTAG | -0.301 z-score
TCACTCGTCTCTATCAAACTGTGCTAG | 0.569 z-score
TTAGATGTCGGGTTTCGATTAGTGCTA | 6.22 z-score
TTAGGAATCCTTATCCTTTAGTGCTAG | -0.0103 z-score
GACGATATCAGTATCGAGTCGTGCTAG | 3.86 z-score
TCATGTTTCCATTTTCTACTGTGCTAG | 2.01 z-score
TTAGGTCTCCTTATCCCTTAGTGCTAG | -0.123 z-score
TTCTGAATGCCCTCTAACTTCGTGCTA | 0.413 z-score
TCAGGTATGCTCATGACACTGTGCTAG | -0.139 z-score
ATAGGTATCGGGTTTCGGTTAGTGCTA | 8.9 z-score
TTAGGTCTCGACACTGGGTTAGTGCTA | -0.423 z-score
CAAACACTGGTTTTTACTTTGTGCTAG | 0.451 z-score
ATCTTTTTCCTAATTGAACCGTGCTAG | 0.912 z-score
TTAGGGATCGGGTTTCGGTTAGTGCTA | 7.61 z-score
TACGGTATCGGTCTCGGGACGTGCTAG | 5.21 z-score
GACGGACTGAACTATCGGGACGTGCTA | 0.882 z-score
CACAGTTTGTAAATCTTTTTGTGCTAG | 0.602 z-score

Block 4
Target: Fragile X messenger ribonucleoprotein 1, C-terminal low-complexity region (Fmr1, Mus musculus, UniProt P35922)
Method: RNA Bind-n-Seq
Form: RNA
Sample: in vitro
Tested at: 200 nM
Setting: whole 134-nt RNA, ends assumed
With: 150 mM LiCl
Reference: input library
Direction: higher = stronger binding
Each molecule: 7-deaza-guanosine replaces G
All sequences stand within: GGGAGUUCUACAGUCCGACGAUC … UGGAAUUCUCGGGUGUCAAGG
Strand | log2 enrichment
UGCCUCUGCGGCUAGCUGAUUUUGGGGUACUUCAUAGGAACGAGCUGUCUGGAGCACUCACAGGACUCACCCGGGUACGAAGAUUCCAAC | -2.58
ACCAUGCAGGUGGGCAUCUUUGGGAAGUGGGGCAAGGGGGGGAUAGGGAGGGGGGUAACACUUUGGGAACAGGAAAUCCCAGGUCGUUUC | 1.55
UUCCUCAGGGUAGAACUGGAUGACUCAGACGUGUUCCAUGGUGAACCUGAACCUGAGGAGCUGCCUGGAGGUAAGGGCCCUGAACUGUCC | -2.56
CAAGUCCUGUGCUACACAUCGUAUGUACCGAAUCGGAAAAAGGAGGUUUUUUUGGAAAGUAUUAUGUUACGCCGUUCGGAUCUGCACUUC | -1.34
ACCAUGCAGGUGGGCAUCUUUGGGAAGUGGGGCAAGGGGGGGAUAGGGAGGGGGGUAAUACUUUGGGAACAGGUGGUCCCAGGUCGUUUC | 1.76
CCUCAAGUCCUGUGCUACACAUCGUAUGUACCGAAUCGGAGGAAAAAGGUGGAAAGUAUUAUGUUACGCCGUUCGGAUCUGCACUUCCAG | -0.663
CCUGUGCUACACAUCGUAUGUACCGAAUCGGGGUUUUUUUGGUUUUUUUGGUUUUUUUGGAAAGUAUUAUGUUACGCCGUUCGGAUCUGC | 0.317
AAGUCCUGUGCUACACAUCGUAUGUACCGAAUCGGUUUUUUUGGAAAGGAAAAAGGAAAGUAUUAUGUUACGCCGUUCGGAUCUGCACUU | -2.47
CUCAAGUCCUGUGCUACACAUCGUAUGUACCGAAUCGGGGUGGGUGGGGUGGGAAAGUAUUAUGUUACGCCGUUCGGAUCUGCACUUCCA | -0.777
CACAGACAACACGCACCCACACAGUCACAGAGGGAAGGGGUUGGGAUGGGGACAGGGUGCACAGCAGGGCGGGGUAGGACCCCAGCCCCU | 0.405
CCUGUGCUACACAUCGUAUGUACCGAAUCGGGCCCCCCCGGCCCCCCCGGCCCCCCCGGGGAAAGUAUUAUGUUACGCCGUUCGGAUCUG | 0.679

For quick reference, copied from above (block 2):
Strand | fluorescence intensity [a.u.]
CGGGGTTAAGTTTGGACTGTGGGTGGCTTGCAGCAG | 5450
CTCAGGTAGACGGTGCTCGTGTCGGGACAATTTTAA | 8550
GTAAGTAATGTACTTCACGTGTGTTCCACTGGTAAT | 14000
CATACCCAACCTTGCCCCGTGGGTGAAGATATTTGT | 12100
TGAGAACATCCAACTAGCGTGCCGATGCAATCCCAG | 6770
GTCAGAAAGCCGGGTAAGGTGTGCCAGCGCGAGTAA | 5840
